Measured values of several laboratories.
Each numbered part is a random draw from the data of one study; scales do not carry over between parts.

Block 1 — technique: competition protein-binding microarray; form: double-stranded DNA, one strand shown; matrix: in vitro; tested at: 2 µM; added: Pho4 competitor, 0.05 µM; direction: higher = stronger binding; shared flanks, not repeated: … GTCTTGATTCGCTTGACGCTGCTG
Target: Centromere-binding protein 1, full length, His-tagged (CBF1, Saccharomyces cerevisiae, UniProt P17106, residues 1-351)
UniProt P17106, sequence (whole entry, looked up): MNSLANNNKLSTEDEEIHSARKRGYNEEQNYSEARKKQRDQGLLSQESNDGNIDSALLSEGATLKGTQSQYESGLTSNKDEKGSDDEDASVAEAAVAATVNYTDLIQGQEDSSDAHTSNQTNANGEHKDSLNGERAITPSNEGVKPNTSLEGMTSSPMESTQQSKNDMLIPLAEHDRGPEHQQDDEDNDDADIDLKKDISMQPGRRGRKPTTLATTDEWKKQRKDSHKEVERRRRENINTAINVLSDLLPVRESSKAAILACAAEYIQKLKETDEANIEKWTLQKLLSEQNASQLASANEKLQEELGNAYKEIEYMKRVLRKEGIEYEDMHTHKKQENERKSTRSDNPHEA
Setting: whole 60-bp probe, lowest competitor level
| Oligonucleotide | fluorescence intensity [a.u.] |
| --- | --- |
| AAAGCGGTAATTTGGCCCGTGGGTGCAGATATCTAT | 73.2 |
| CATACCCAACCTTGCGCCGTGGGTGAAGATATTTGT | 54.5 |
| TGTACCACCTCTTTGAACGTGACAAAGAATGGTTAC | 433 |
| AAGACGGCACTATTCCATGTGACGGATTCCCATCTG | 240 |
| AGATGAGCGCTCAATCTCGTGAAGGCTATGTGTAGT | 109 |
| ATAATAAAGAATGGTGATGTGATGGTATTCAACTTG | 96.7 |
| GTCTTGTCTCATTGCCCAGTGGGTGTCCCCACTTCA | 68.4 |
| TTGTTATCGTTAAACCACATGATGAAGGTTCCAAGT | 283 |
| CTAACGAAGGTTTTTCACGTGCACTACAAGCCAAGT | 862 |
| CTAACGAAGGTTTTTCACGTGAAGTACAAGCCAAGT | 561 |
| TGCGCAACAACTTTTCACGTGACCTTATGTCTAGAA | 9730 |
| CTTTCCCGATCTTGGGTGGTGGGTGTAGCACATTTG | 75.2 |
| AGAAGGAAGTAACTGCAGGTGAAGCACAGGACGAAG | 88.3 |
| AAAGCGGTAATTTGAAATGTGGGTGCAGATATCTAT | 74.7 |
| GTCTTGTCTCATTGATGAGTGGGTGTCCCCACTTCA | 64.5 |
| AAATGGGATAACCGTCACGTGACTCGCACTAGGGGC | 16800 |
| CATACCCAACCTTGTTAGGTGGGTGAAGATATTTGT | 56.5 |
| CATACCCAACCTTTTCACGTGAGATAAGATATTTGT | 1080 |
| CATACCCAACCTTTTCACGTGTTGTAAGATATTTGT | 997 |
| AACTTTCTAGTCGACCACGTGAGTCCGCCCAGTCTT | 1860 |
| AGAAATGTTCTCCTCCACGTGGATTCGTACCGTTGT | 473 |

Block 2 — technique: RNA Bind-n-Seq; form: RNA; matrix: in vitro; tested at: 200 nM; setting: whole 134-nt RNA, ends assumed; added: 150 mM LiCl; reference: input library; direction: higher = stronger binding; all molecules: 7-deaza-guanosine replaces G
Target: Ras GTPase-activating protein-binding protein 1, full length (G3BP1, Homo sapiens, UniProt Q13283)
UniProt Q13283, sequence (whole entry, looked up): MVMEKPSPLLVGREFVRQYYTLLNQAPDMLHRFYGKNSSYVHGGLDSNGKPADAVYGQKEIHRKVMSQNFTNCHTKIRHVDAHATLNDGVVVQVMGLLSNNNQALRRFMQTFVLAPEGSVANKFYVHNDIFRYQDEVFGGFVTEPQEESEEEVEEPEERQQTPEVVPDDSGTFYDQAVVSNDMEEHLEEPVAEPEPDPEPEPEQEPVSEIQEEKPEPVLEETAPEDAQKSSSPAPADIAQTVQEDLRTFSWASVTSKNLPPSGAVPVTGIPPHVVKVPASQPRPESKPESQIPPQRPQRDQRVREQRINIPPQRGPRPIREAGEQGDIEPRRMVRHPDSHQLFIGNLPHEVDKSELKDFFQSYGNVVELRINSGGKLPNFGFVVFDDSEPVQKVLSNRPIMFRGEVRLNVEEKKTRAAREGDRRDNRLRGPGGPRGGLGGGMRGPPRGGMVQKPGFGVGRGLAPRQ
Shared flanks, not repeated: GGGAGUUCUACAGUCCGACGAUC … UGGAAUUCUCGGGUGUCAAGG
| Oligonucleotide | log2 enrichment |
| --- | --- |
| UAGGAAAACCGUCUUCAGAUACAGUCCCUAAGCCCAAGAGAGCCCCAAAACAGAAGAAAGUAGUAGAGGCUGUAAACUCUGACUCGGAUU | 0.967 |
| AGUCCUGUGCUACACAUCGUAUGUACCGAAUCGGGGUUUUUGGGGAAAGGGGUGGGGAAAGUAUUAUGUUACGCCGUUCGGAUCUGCACU | -0.514 |
| AGUCCUGUGCUACACAUCGUAUGUACCGAAUCGGGGAAAGGGGUUUUUGGGGUGGGGAAAGUAUUAUGUUACGCCGUUCGGAUCUGCACU | -0.089 |
| CCUCAAGUCCUGUGCUACACAUCGUAUGUACCGAAUCGGGUGGGGUGGUGGGAAAGUAUUAUGUUACGCCGUUCGGAUCUGCACUUCCAG | 0.153 |
| CUCAAGUCCUGUGCUACACAUCGUAUGUACCGAAUCGGAGGAAAGGUUUUUGGAAAGUAUUAUGUUACGCCGUUCGGAUCUGCACUUCCA | -0.497 |
| CACAGACAACACGCACCCACGCAGACACAGAGGGAAGGGGUUGGGAUGGGGACAGGGUGCACAGCAGGGCGGGGUAGGACCCCAGCCCCU | 0.353 |
| AAGUCCUGUGCUACACAUCGUAUGUACCGAAUCGGGGCCCGGGCCCGGGCCCGGGGAAAGUAUUAUGUUACGCCGUUCGGAUCUGCACUU | -0.612 |
| CUCAAGUCCUGUGCUACACAUCGUAUGUACCGAAUCGGUUUUUGGUGGAAAGGAAAGUAUUAUGUUACGCCGUUCGGAUCUGCACUUCCA | 0.157 |
| AAGUCCUGUGCUACACAUCGUAUGUACCGAAUCGGGGAAAGGGGAAAGGGGAGGGGAAAGUAUUAUGUUACGCCGUUCGGAUCUGCACUU | 0.548 |
| UUUUAUGUGGAGUUAUGAAGACCUACAGGCAGAGAGAGAAACAGGGGAGCAAGGUGCAAGAGUCCACAAAGGGACCUGAUGAAGCGAAGA | -0.52 |
| UUCCCCACUUCCUUCCCUCCAGUCCCCACUCACUCACAUGCACACACUAACCUUGGAGCCGAUGGGAUUGAGUGACUGGCACUUGGGACC | 0.765 |

Block 3 — technique: aptamer microarray, sandwich; form: DNA with 2'F-ANA; matrix: in vitro; tested at: 200 nM; added: Cy3 exosite-II aptamer, 400 nM; direction: higher = stronger binding; oligonucleotide: GGTTGGTGTGGTTGG
Target: Prothrombin, mature alpha-thrombin (F2, Homo sapiens, UniProt P00734)
Setting: whole 15-mer aptamer, many near background
| Modification | mean fluorescence intensity [a.u.] |
| --- | --- |
| 2'F-ANA at 1 2 10 11 | 53.8 |
| 2'F-ANA at 1 2 5 6 7 8 10 11 12 15 | 48.6 |
| 2'F-ANA at 4 7 11 15 | 263 |
| 2'F-ANA at 2 7 11 14 15 | 176 |
| 2'F-ANA at 1 5 6 7 8 | 61.9 |
| 2'F-ANA at 4 7 8 9 10 11 12 13 | 109 |
| 2'F-ANA at 1 3 4 6 8 9 10 12 14 15 | 62.2 |
| 2'F-ANA at 1 3 6 11 13 14 15 | 73.9 |
| 2'F-ANA at 1 4 5 8 10 13 15 | 46.1 |
| 2'F-ANA at 1 3 5 7 9 12 | 138 |
| 2'F-ANA at 1 5 6 8 10 11 12 14 15 | 87 |
| 2'F-ANA at 1 2 4 6 7 10 15 | 58.8 |
| 2'F-ANA at 3 4 7 9 11 12 14 | 334 |
| 2'F-ANA at 1 2 3 4 8 9 10 13 14 15 | 53.8 |
| 2'F-ANA at 1 2 5 7 13 14 | 45.7 |
| 2'F-ANA at 5 7 8 13 15 | 61.7 |
| 2'F-ANA at 2 4 5 6 10 14 | 53.8 |

Block 4 — technique: protein-binding microarray; form: double-stranded DNA, one strand shown; matrix: in vitro; tested at: not given; direction: higher = stronger binding
Target: Max-binding protein MNT, bHLH-zipper, MAX partner unstated (MNT, Homo sapiens, UniProt Q99583, residues 220-300)
Setting: k-mer, scored over probes, only values ≥0.25
Construct (chain): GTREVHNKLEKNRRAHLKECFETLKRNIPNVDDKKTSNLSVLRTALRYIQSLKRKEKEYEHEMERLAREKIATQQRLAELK
| Oligonucleotide | E-score |
| --- | --- |
| GAGCATGC | 0.407 |
| CCCCGTGA | 0.352 |
| CATGCAGA | 0.289 |
| CGGCCACG | 0.347 |
| CCCGTCCC | 0.256 |
| CATGCAAC | 0.348 |
| CATGGCTA | 0.273 |
| TACACGCA | 0.304 |
| ATGTGGTA | 0.282 |
| GCGTGATA | 0.378 |
| CACACCAC | 0.288 |
| GCCCCACC | 0.37 |
| ATATGGCA | 0.262 |
| CATACATG | 0.252 |
| ACGAGGCG | 0.362 |
| GGTGCGCA | 0.286 |
| CACGCGGG | 0.455 |
| CAGGTGGA | 0.292 |
| CATCATGC | 0.282 |
| CACGCGAG | 0.407 |

Block 5 — technique: RNA Bind-n-Seq; form: RNA; matrix: in vitro; tested at: 365 nM; reference: no-protein control; direction: higher = stronger binding
Target: RNA binding protein fox-1 homolog 2, RRM domain, GST-SBP tag (RBFOX2, Homo sapiens, UniProt O43251-10, residues 100-194)
Setting: natural RNA segment, single round, ends assumed
Shared flanks, not repeated: GGGAGUUCUACAGUCCGACGAUC … UGGAAUUCUCGGGUGCCAA
Construct (chain): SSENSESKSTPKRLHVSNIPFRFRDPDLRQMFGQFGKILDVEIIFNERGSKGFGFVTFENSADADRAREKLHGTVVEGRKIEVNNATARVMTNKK
| Oligonucleotide | RBNS enrichment (R) |
| --- | --- |
| GCCAUGAGCUACCCACUGGCAUCUCCAGGUUUUUUGUAGCAAACAGCCACUUAGUGCUUUGUCCUGGACUCCGCUCAGCCUGAGGCUGGGGAAUAGAAAGGGCAGACCCC | 0.229 |
| UUGAAUUUCGUAUUCUUUCAUUCCACUGUGUAAAGUGCUAGACAUUUUCCAAUUUAAAAUUUUGCUUUUUAUCCUGGCACUGGCAAAAAGAACUGUGAAAGUGAAAUUUU | 0.548 |
| GGGUAAUGAUCCAGACCGAGGCACCUCCAUAUGGCAUCAAACAAAUCUCUUCACUGUUUCUUUUUUAGGACUCCCUUUGCAAGGAGCAACUGUAAUAUUGUGGGACUAAC | 0.314 |
| GGAAACAUCCUCUCACUUGCAUUCUUUUAACUUAAAACUAUUUAAGAACUGAUGUUCCGAUUAUUGUAUAUAUUUUUCUAAAAACCAAAUAAAGCUACCUAUGAAAAUGA | 0.929 |
| GCCAGUGGUGAACAGUGUCUGAUCAUGUGAAACACAACACGUUUUCCUCUCUGAGUCCCAGCUAUGGGGAACAUCUGGAGUCAGCAGAACCAUUGGGACCUGAGGCAGGA | 0.385 |
| GCUUAAUAUGUGCCAGGCAUAGUGCUAAGGGUUUACAUACGUUAUCCCUUUUAAUCCAGAAAACAGCCUUUGAUUAGGUAUUGUUGUCUCCAUUUUAUAGAUGAGGAAAC | 0.296 |
| UGGGUUCAUGACUGUGAACACAAUGUGCCCUGUGCUGGGCCACAGCUUCCUUGUUUAUGAAGUGAGGUGGUUUCUAGUGCUUUUCCAGGUUCUGCCUUAGUUAAAAACUA | 0.288 |
| UGCGCAUUGAUAUGUGGAGGCUGUUGAUUUCAACCUUUUUUAAACUUGUGUUUUUUAGUAAAAUUGCUUAUUUUUUUCCCAAAGGUGGAAUUUAAUGUUUUGUAGUGAUG | 0.798 |
| GAGAUUUUAUAUUUAUAAUCAACACGUGGGUUAACAUGUUUUUUUGAAAUCCAAGCAAUACACAGGAAAUUUAAGUAGAAUAAAAAUUGCAGCCCAUUUUUGAAAUGUCA | 0.709 |
| UCAUGCUGUUUUUUUUCUCUGCAACUCGUUAGCAGAGGAAAACAGCAUGUGGGUAUUUGUCGACCAAAAUGAUGCCAAUUUGUAAAUUAAAAUGUCACCUAGUGGCCCUU | 0.311 |
| GUGCUCUGAUAUGCUCCUUGACUGAAACUUUAAGGGGAUCUCUCCCAGAGACUUGACAUUUUAGCUUUAUUGUGUCUUAAAAACAAAAGCGAAUUAAAACACAACAAAAA | 0.742 |
| UAAUGUUUUUACAGCAACAAUAUGAAAUAUAUUUUAUAAGGAAUAAAAUGGUACCUUGUCUGAUUUAUGUGUGCCUGUCCUUUGCCCCUUCCCUUGCAACAAAUAAGAUU | 2.31 |

Some of these lines once more (block 1):
| Oligonucleotide | fluorescence intensity [a.u.] |
| --- | --- |
| CTAACGAAGGTTTTTCACGTGAAGTACAAGCCAAGT | 561 |
| TGCGCAACAACTTTTCACGTGACCTTATGTCTAGAA | 9730 |
| CTTTCCCGATCTTGGGTGGTGGGTGTAGCACATTTG | 75.2 |
| AGAAGGAAGTAACTGCAGGTGAAGCACAGGACGAAG | 88.3 |
| AAAGCGGTAATTTGAAATGTGGGTGCAGATATCTAT | 74.7 |
| GTCTTGTCTCATTGATGAGTGGGTGTCCCCACTTCA | 64.5 |
| AAATGGGATAACCGTCACGTGACTCGCACTAGGGGC | 16800 |
| CATACCCAACCTTGTTAGGTGGGTGAAGATATTTGT | 56.5 |
| CATACCCAACCTTTTCACGTGAGATAAGATATTTGT | 1080 |
| CATACCCAACCTTTTCACGTGTTGTAAGATATTTGT | 997 |
